Measurements pooled from the literature.
A part holds a random share of what one study measured.
Chain of UniProt P42336 (whole entry, unmodified, looked up): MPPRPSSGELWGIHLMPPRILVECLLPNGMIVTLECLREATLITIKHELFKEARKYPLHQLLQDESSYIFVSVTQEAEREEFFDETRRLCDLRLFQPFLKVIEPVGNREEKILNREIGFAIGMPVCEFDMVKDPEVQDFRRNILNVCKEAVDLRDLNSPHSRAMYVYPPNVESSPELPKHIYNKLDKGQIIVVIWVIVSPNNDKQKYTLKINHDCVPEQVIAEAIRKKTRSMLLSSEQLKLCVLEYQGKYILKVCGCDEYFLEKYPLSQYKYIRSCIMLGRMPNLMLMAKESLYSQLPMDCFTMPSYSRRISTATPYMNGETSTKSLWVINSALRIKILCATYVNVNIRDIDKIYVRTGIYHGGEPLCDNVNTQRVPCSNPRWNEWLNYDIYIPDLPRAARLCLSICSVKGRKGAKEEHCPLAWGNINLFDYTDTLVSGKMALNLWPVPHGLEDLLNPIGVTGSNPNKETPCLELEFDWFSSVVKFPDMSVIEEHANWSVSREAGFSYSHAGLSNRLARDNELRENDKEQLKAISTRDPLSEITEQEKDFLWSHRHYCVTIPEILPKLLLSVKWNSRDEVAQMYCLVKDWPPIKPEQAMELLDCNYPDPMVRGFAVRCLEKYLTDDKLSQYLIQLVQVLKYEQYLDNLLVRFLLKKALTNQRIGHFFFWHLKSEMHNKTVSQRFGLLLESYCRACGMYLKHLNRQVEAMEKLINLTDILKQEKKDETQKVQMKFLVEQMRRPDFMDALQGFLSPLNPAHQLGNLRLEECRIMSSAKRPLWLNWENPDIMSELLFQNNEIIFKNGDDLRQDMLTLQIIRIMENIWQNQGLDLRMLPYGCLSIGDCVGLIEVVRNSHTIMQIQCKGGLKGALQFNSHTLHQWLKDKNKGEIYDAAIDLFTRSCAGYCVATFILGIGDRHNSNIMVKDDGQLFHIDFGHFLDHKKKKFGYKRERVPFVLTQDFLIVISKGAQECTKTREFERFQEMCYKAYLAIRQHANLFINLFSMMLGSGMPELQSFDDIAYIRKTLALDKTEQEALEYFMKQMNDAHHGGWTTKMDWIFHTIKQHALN
Chain of UniProt Q9NRP7 (whole entry, looked up): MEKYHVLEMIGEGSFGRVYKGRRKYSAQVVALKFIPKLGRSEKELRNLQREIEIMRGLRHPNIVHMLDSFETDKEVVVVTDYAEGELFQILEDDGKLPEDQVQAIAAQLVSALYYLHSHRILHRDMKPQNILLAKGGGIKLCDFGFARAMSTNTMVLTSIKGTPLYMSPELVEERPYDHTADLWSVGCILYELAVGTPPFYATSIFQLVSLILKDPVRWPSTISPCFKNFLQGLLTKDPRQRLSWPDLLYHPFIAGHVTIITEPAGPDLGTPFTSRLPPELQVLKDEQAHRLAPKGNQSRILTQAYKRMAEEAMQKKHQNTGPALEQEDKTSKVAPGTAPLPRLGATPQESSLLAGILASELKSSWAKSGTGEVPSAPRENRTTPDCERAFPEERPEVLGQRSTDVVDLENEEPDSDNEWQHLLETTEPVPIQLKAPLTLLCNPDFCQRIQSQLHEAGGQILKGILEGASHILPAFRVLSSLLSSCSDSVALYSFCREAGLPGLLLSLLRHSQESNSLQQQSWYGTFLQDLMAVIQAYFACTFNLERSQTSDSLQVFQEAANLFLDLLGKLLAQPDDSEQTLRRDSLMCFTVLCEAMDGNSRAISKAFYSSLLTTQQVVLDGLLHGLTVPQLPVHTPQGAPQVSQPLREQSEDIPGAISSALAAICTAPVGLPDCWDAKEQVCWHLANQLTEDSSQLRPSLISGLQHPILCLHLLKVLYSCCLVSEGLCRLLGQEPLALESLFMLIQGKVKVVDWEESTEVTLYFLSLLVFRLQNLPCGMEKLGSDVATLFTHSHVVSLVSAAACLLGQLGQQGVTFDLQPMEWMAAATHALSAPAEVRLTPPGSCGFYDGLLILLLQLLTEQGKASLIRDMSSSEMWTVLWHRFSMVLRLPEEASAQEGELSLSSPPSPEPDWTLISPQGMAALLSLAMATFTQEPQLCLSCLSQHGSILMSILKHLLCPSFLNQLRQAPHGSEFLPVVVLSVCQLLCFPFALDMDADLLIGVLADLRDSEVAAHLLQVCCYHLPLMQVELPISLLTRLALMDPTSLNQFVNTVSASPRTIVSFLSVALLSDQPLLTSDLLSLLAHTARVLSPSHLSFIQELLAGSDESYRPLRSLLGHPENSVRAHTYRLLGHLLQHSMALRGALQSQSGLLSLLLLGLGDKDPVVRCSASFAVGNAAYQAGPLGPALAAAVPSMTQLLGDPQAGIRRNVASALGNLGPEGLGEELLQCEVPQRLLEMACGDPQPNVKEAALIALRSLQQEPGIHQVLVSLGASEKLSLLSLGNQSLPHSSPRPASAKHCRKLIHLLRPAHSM
Chain of UniProt O95382 (whole entry, looked up): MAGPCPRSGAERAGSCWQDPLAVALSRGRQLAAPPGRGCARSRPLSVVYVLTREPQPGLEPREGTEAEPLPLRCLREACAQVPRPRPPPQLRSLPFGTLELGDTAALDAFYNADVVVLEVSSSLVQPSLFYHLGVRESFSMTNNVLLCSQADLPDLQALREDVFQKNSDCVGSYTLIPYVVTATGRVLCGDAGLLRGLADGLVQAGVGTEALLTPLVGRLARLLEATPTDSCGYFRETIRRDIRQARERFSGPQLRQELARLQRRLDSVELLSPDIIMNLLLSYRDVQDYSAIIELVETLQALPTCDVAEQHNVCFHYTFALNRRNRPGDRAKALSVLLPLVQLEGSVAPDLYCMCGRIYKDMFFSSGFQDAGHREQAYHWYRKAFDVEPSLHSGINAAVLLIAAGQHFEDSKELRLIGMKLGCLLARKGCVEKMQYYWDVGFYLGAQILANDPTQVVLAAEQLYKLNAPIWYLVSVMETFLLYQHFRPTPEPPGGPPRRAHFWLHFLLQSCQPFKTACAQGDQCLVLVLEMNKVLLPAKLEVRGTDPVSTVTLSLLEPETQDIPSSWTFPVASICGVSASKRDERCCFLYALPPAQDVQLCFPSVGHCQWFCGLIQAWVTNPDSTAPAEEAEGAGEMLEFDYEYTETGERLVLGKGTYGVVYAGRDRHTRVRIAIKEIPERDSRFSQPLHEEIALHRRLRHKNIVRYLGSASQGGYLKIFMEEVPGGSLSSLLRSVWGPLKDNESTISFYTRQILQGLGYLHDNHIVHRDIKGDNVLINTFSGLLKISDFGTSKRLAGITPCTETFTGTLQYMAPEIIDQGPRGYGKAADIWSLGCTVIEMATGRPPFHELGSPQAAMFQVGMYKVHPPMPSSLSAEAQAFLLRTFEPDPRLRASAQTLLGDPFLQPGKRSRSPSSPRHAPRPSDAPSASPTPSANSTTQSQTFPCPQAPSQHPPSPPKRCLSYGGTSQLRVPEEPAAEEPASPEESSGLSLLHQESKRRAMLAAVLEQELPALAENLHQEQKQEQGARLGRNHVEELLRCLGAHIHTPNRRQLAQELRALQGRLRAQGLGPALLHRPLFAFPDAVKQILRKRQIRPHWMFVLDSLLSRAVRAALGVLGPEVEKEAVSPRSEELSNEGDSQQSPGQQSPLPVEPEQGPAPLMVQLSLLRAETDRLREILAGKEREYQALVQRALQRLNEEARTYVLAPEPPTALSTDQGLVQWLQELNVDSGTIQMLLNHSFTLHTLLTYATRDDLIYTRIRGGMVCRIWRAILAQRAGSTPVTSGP
Chain of UniProt P53350 (whole entry, looked up): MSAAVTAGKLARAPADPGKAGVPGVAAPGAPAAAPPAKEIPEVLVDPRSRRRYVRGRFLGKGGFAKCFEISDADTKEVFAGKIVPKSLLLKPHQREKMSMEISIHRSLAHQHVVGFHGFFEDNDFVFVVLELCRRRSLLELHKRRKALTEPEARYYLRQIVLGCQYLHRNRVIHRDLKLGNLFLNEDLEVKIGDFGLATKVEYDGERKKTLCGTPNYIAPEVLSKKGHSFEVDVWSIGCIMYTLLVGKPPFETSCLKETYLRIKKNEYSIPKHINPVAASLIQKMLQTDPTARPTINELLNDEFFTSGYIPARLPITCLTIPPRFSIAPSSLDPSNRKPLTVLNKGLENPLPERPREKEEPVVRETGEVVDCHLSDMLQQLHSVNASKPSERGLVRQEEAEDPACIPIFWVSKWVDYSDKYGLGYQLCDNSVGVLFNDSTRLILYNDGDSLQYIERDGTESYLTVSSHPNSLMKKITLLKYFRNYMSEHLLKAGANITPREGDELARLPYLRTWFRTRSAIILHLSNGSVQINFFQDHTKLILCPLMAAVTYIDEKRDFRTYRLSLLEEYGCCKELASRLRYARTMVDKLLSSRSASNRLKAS

Block 1
Host: human
Matrix: microsomes or S9
Concentration: 2 µM
Time: 0.5 h
With `COc1ccc(-n2c(-c3ccc(OCCN(C)C)cc3)nn(Cc3ccccc3)c2=O)cc1` the remaining compound was 47%.
For `Cc1ccc2c(=O)c(-c3nc(-c4ccccc4C)no3)cn(CC(=O)NC3CCc4ccccc43)c2n1` (centres unmarked), the remaining compound was 0.431%.
For `CC(C)c1cc(C(=O)N2CCC(Oc3ccc(-c4ccc(S(C)(=O)=O)cc4F)nc3)CC2)no1`, the remaining compound was 21.9%.
The remaining compound of `CC(C)Cc1nc2nccc(-c3ccncc3)n2n1` is reported as 86.8%.
`Clc1ccc(-c2ccc(CNCCOc3ccccn3)o2)c(Cl)c1` gave a remaining compound of 39.6%.
`Cc1cc2c(c(O)c1-c1c(C)cc3c(c1O)C(=O)C(O)C3C(C)C)C(=O)C(O)C2C(C)C` (centres unmarked) has a remaining compound of 55.7%.
`CCc1c(C(=O)c2cc(F)cc(F)c2)n(C/C=C/c2ccccc2)c(=O)[nH]c1=O` gave a remaining compound of 42.6%.
`COC(=O)CN(c1ccccc1OC)S(C)(=O)=O` gave a remaining compound of 13.5%.
The remaining compound of `O=C(NCc1nc(-c2ccc[nH]c2=O)no1)c1ccc2[nH]c(=O)oc2c1` is reported as 78.5%.
`COc1cc(=O)[nH]cc1C(=O)N1CCCN(C)c2ccccc21` has a remaining compound of 69.2%.
`CNS(=O)(=O)c1cn(CC(=O)Nc2ccc(C)cn2)cc1S(=O)(=O)NC` gave a remaining compound of 99.5%.
For `COc1ccc(C2=NN(c3nc4ccccc4s3)C(=O)C2)cc1`, the remaining compound was 26.9%.
For `COC(=O)Cn1nc2c3c(C)c(C)sc3ncn2c1=O`, the remaining compound was 0.316%.
`Cc1c(Br)cc(C(=O)N(C)Cc2cscn2)c(=O)n1C` gave a remaining compound of 24.4%.
The remaining compound of `Oc1c2ccc(-c3ccco3)nc2nn1-c1ccccc1` is reported as 85.5%.
`CCN1CC(CN(C)c2ncnc3sccc23)Oc2ccccc21` (centres unmarked) gave a remaining compound of 0.878%.

Block 2
Organism: Sarcocystis neurona
Read-out: parasite growth
Concentration: 10 µM
The inhibition of `CN1CCC(=C2c3ccccc3C=Cc3ccccc32)CC1` is reported as 11.9%.
`O=C1CC[C@@H](C(=O)N2CSC[C@H]2C(=O)O)N1` has an inhibition of -20.5%.
`CC(=O)[C@]1(O)Cc2c(O)c3c(c(O)c2[C@@H](O[C@H]2C[C@H](N)[C@H](O)[C@H](C)O2)C1)C(=O)c1ccccc1C3=O` has an inhibition of 98.1%.
For `COC1=CC(=O)C[C@@H](C)[C@]12Oc1c(Cl)c(OC)cc(OC)c1C2=O`, the inhibition was -45.8%.
`C[C@H]1O[C@H](O[C@H]2[C@H](O)[C@@H](O)[C@@H](O[C@H]3[C@H](O)[C@@H](O)C(O)O[C@@H]3CO)O[C@@H]2CO)[C@H](O)[C@@H](O)[C@@H]1N[C@H]1C=C(CO)[C@@H](O)[C@H](O)[C@H]1O` (some centres unmarked) gave an inhibition of -25.3%.
`CN1CCc2cc(Cl)c(O)cc2[C@@H](c2ccccc2)C1.Cl` has an inhibition of -31%.
With `CNCCC(Oc1ccc(C(F)(F)F)cc1)c1ccccc1.Cl` (centres unmarked) the inhibition was -21.9%.
With `CCCN1CCCC[C@H]1C(=O)Nc1c(C)cccc1C` the inhibition was -21.1%.
The inhibition of `COC(=O)Nc1nc2cc(C(=O)c3ccc(F)cc3)ccc2[nH]1` is reported as 19.7%.
The inhibition of `Cc1nccn1CC1CCc2c(c3ccccc3n2C)C1=O.Cl` (centres unmarked) is reported as -20.1%.
`CCc1nc(N)nc(N)c1-c1ccc(Cl)cc1` has an inhibition of 79.3%.
`Cc1nc2ccccn2c(=O)c1CCN1CCC(C(=O)c2ccc(F)cc2)CC1` has an inhibition of 26.2%.

Block 3
Compound: CCc1ccccc1C(=O)Nc1n[nH]c2c(C)c(F)c(C3C(C#N)=C(C)N(C)C(C)=C3C#N)cc12
Concentration: 1 µM
For EGFR (Homo sapiens, UniProt P00533, del747-750/T751S); cell-free assay, competition with immobilised ligand: remaining binding read 29%.
MELK (Homo sapiens, UniProt Q14680); cell-free assay, competition with immobilised ligand — remaining binding: 43%.
The remaining binding was 89% (SRPK1 (Homo sapiens, UniProt Q96SB4); cell-free assay, competition with immobilised ligand).
WNK3 (Homo sapiens, UniProt Q9BYP7); cell-free assay, competition with immobilised ligand — remaining binding: 90%.
It gave 100% for remaining binding (BMPR2 (Homo sapiens, UniProt Q13873); cell-free assay, competition with immobilised ligand).
For MAP3K6 (Homo sapiens, UniProt O95382); cell-free assay, competition with immobilised ligand: remaining binding read 100%.
Aurora kinase C (AURKC, Homo sapiens, UniProt Q9UQB9); cell-free assay, competition with immobilised ligand — remaining binding: 29%.
It gave 100% for remaining binding (PLK1 (Homo sapiens, UniProt P53350); cell-free assay, competition with immobilised ligand).
PIK3CA (Homo sapiens, UniProt P42336, E542K); cell-free assay, competition with immobilised ligand — remaining binding: 54%.
The remaining binding was 100% (STK36 (Homo sapiens, UniProt Q9NRP7); cell-free assay, competition with immobilised ligand).
It gave 87% for remaining binding (CHUK (Homo sapiens, UniProt O15111); cell-free assay, competition with immobilised ligand).
For PIK3CA (Homo sapiens, UniProt P42336, Q546K); cell-free assay, competition with immobilised ligand: remaining binding read 39%.
For ERN1 (Homo sapiens, UniProt O75460); cell-free assay, competition with immobilised ligand: remaining binding read 70%.
The remaining binding was 88% (PRKD3 (Homo sapiens, UniProt O94806); cell-free assay, competition with immobilised ligand).
It gave 100% for remaining binding (Tyrosine-protein kinase ABL1, non-phosphorylated (ABL1, Homo sapiens, UniProt P00519, F317L); cell-free assay, competition with immobilised ligand).
CDK19 (Homo sapiens, UniProt Q9BWU1); competition binding — remaining binding: 100%.
For MAP3K19 (Homo sapiens, UniProt Q56UN5); cell-free assay, competition with immobilised ligand: remaining binding read 74%.
For MYLK4 (Homo sapiens, UniProt Q86YV6); cell-free assay, competition with immobilised ligand: remaining binding read 100%.
HCK (Homo sapiens, UniProt P08631); cell-free assay, competition with immobilised ligand — remaining binding: 100%.
The remaining binding was 69% (SIK2 (Homo sapiens, UniProt Q9H0K1); cell-free assay, competition with immobilised ligand).
For CSNK1D (Homo sapiens, UniProt P48730); cell-free assay, competition with immobilised ligand: remaining binding read 100%.
For MARK4 (Homo sapiens, UniProt Q96L34); cell-free assay, competition with immobilised ligand: remaining binding read 51%.
CDKL1 (Homo sapiens, UniProt Q00532); binding, competition with immobilised ligand — remaining binding: 87%.
It gave 77% for remaining binding (PIP4K2C (Homo sapiens, UniProt Q8TBX8); binding, competition with immobilised ligand).
For CDK13 (Homo sapiens, UniProt Q14004); cell-free assay, competition with immobilised ligand: remaining binding read 100%.

Block 4
Target: Serine/threonine-protein kinase MARK1 (MARK1, Homo sapiens, UniProt Q9P0L2)
Chain of UniProt Q9P0L2 (whole entry, looked up): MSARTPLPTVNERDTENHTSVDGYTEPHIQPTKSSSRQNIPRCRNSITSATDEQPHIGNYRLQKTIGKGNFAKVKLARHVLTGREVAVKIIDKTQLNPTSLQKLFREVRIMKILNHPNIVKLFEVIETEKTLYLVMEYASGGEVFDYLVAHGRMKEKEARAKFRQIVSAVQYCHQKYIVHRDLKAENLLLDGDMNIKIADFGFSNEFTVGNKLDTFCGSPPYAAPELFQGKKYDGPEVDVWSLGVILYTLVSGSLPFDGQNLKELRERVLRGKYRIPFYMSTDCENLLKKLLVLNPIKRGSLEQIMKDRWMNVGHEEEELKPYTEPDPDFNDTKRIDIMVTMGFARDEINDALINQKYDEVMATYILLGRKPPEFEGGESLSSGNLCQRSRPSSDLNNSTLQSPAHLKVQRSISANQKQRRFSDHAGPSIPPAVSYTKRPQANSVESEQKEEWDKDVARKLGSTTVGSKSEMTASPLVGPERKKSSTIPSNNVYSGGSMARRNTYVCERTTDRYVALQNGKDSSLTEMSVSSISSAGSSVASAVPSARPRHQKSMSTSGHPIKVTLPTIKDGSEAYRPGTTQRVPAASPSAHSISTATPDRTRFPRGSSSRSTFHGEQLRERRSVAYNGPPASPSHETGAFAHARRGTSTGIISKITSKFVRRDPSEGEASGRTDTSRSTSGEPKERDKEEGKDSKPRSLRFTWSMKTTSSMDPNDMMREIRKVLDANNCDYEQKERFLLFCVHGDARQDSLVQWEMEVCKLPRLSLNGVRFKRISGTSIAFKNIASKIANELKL
Read-out: enzyme activity
Action: inhibitor
Concentration: 0.5 µM
Baseline: control
`CCN(CC)C(=O)c1ccc(Nc2nc(OCC3CCCCC3)c3[nH]cnc3n2)cc1` gave a remaining activity of 82.7%.
The remaining activity of `CCOc1nc(NC(=O)Cc2cc(OC)ccc2OC)cc(N)c1C#N` is reported as 99%.
With `N#Cc1c(NC(=O)c2cccc3ccccc23)sc2c1CCCC2` the remaining activity was 100%.
`CN([C@@H](Cc1ccc(OS(=O)(=O)c2cccc3cnccc23)cc1)C(=O)N1CCN(c2ccccc2)CC1)S(=O)(=O)c1cccc2cnccc12` has a remaining activity of 96.7%.
`O=C(Nc1cccc(Nc2nccc(Nc3cccc(C(F)(F)F)c3)n2)c1)C1CC1` gave a remaining activity of 104%.
With `O=C1c2ccccc2-c2n[nH]c3cccc1c23` the remaining activity was 60.1%.
For `Cc1nc2cc3nc(-c4cccs4)cnc3cc2n1C`, the remaining activity was 102%.
The remaining activity of `O=C1C(Cl)=C(N2C(=O)CCC2=O)C(=O)c2ccccc21` is reported as 99.3%.
For `CCN(CC)CCNC(=O)c1c(C)[nH]c(/C=C2\C(=O)Nc3ccc(F)cc32)c1C`, the remaining activity was 40.9%.
`O=c1cc(-c2cccc3c2Sc2ccccc2S3)oc(N2CCOCC2)c1` has a remaining activity of 100%.
For `Ic1cccc(CSc2nnc(-c3ccncc3)o2)c1`, the remaining activity was 111%.
For `O=C(NC(NC(=S)Nc1ccc(F)c([N+](=O)[O-])c1)C(Cl)(Cl)Cl)C(c1ccccc1)c1ccccc1` (centres unmarked), the remaining activity was 101%.
`Cc1cn(-c2cc(NC(=O)c3ccc(C)c(Nc4nccc(-c5cccnc5)n4)c3)cc(C(F)(F)F)c2)cn1` has a remaining activity of 148%.
For `Nc1cccc(-c2cc3c(Oc4cccc(O)c4)ncnc3[nH]2)c1`, the remaining activity was 83%.
With `C[C@@H]1CCN(C(=O)CC#N)C[C@@H]1N(C)c1ncnc2[nH]ccc12` the remaining activity was 119%.
`COc1cc2c(cc1OC)-c1[nH]nc(Nc3cccc(F)c3)c1C2` has a remaining activity of 96.1%.
For `c1ccc(-c2cnc(Nc3ccc(OCCN4CCCC4)cc3)s2)cc1`, the remaining activity was 90.1%.
`Cn1nc2c3c(cccc31)C(=O)c1ccccc1-2` gave a remaining activity of 95.7%.
The remaining activity of `COc1cc2ncnc(Nc3ccc(O)c(Br)c3)c2cc1OC` is reported as 94.8%.
With `CCN(CC)CCNC(=O)c1c(C)[nH]c(/C=C2\C(=O)Nc3ccc(Cl)cc32)c1C` the remaining activity was 18.1%.
With `N#C/C(=C\c1ccc(O)c(O)c1)C(=O)NCc1ccccc1` the remaining activity was 93.8%.
The remaining activity of `Cc1cc2ncc(-c3ccccc3)nc2cc1C` is reported as 106%.
For `c1ccc(-c2[nH]ncc2-c2ccnc3ccccc23)nc1`, the remaining activity was 79.2%.
For `CN(C)C[C@H]1CCn2c(c(C3=C(c4cn(C)c5ccccc45)C(=O)NC3=O)c3ccccc32)C1`, the remaining activity was 92.8%.

Some of these lines once more (block 2):
`CC(=O)[C@]1(O)Cc2c(O)c3c(c(O)c2[C@@H](O[C@H]2C[C@H](N)[C@H](O)[C@H](C)O2)C1)C(=O)c1ccccc1C3=O` has an inhibition of 98.1%.
For `COC1=CC(=O)C[C@@H](C)[C@]12Oc1c(Cl)c(OC)cc(OC)c1C2=O`, the inhibition was -45.8%.
`C[C@H]1O[C@H](O[C@H]2[C@H](O)[C@@H](O)[C@@H](O[C@H]3[C@H](O)[C@@H](O)C(O)O[C@@H]3CO)O[C@@H]2CO)[C@H](O)[C@@H](O)[C@@H]1N[C@H]1C=C(CO)[C@@H](O)[C@H](O)[C@H]1O` (some centres unmarked) gave an inhibition of -25.3%.
`CN1CCc2cc(Cl)c(O)cc2[C@@H](c2ccccc2)C1.Cl` has an inhibition of -31%.
With `CNCCC(Oc1ccc(C(F)(F)F)cc1)c1ccccc1.Cl` (centres unmarked) the inhibition was -21.9%.
With `CCCN1CCCC[C@H]1C(=O)Nc1c(C)cccc1C` the inhibition was -21.1%.
The inhibition of `COC(=O)Nc1nc2cc(C(=O)c3ccc(F)cc3)ccc2[nH]1` is reported as 19.7%.
The inhibition of `Cc1nccn1CC1CCc2c(c3ccccc3n2C)C1=O.Cl` (centres unmarked) is reported as -20.1%.
`CCc1nc(N)nc(N)c1-c1ccc(Cl)cc1` has an inhibition of 79.3%.
`Cc1nc2ccccn2c(=O)c1CCN1CCC(C(=O)c2ccc(F)cc2)CC1` has an inhibition of 26.2%.
